Measurements collected from several papers.
A part holds a random share of what one study measured. Positions count from the first letter of the parent shown.
UniProt P28335, sequence (whole entry, looked up): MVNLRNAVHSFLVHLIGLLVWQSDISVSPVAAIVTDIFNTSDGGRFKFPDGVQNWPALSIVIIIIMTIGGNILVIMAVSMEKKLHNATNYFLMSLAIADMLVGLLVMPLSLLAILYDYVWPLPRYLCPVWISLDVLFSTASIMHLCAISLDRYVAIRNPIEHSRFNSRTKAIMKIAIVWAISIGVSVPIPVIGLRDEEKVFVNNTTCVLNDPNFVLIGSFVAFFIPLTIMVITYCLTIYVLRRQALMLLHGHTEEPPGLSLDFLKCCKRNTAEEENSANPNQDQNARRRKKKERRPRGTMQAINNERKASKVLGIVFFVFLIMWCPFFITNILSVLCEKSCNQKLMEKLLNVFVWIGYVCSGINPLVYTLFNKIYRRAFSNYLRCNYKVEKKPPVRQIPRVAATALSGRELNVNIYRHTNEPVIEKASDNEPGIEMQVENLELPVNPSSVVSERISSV

Set 1
Cell line: HaCaT
Concentration: 100 µM
Time: 36 h
With COc1ccc(C(=O)N2CCCC2=O)cc1 the viability was 73.6%.
CCOP(=S)(OCC)Oc1cc(C)nc(C(C)C)n1 gave a viability of 86.7%.
With NC(=O)CN1CCCC1=O the viability was 82.3%.
OC(O)C(Cl)(Cl)Cl has a viability of 107%.

Set 2
Target: CCNE2, cyclin fold, Cln2 fusion (human)
Technique: yeast growth competition, sequencing
Medium: yeast
Setting: strong parent motif
Reference: not given
Reading: higher = stronger binding
Parent: viral docking peptide; YKVKRRLVFGADD
For `YKVLRRLVFGADD [K4L]`, “normalised enrichment score” read 0.812.
Under “normalised enrichment score”, `YKVKRRSVFGADD [L7S]` is recorded as 0.787.
`YKVKIRLVFGADD [R5I]` — result for “normalised enrichment score”: 0.632.
For `YKVCRRLVFGADD [K4C]`, “normalised enrichment score” read 4.88.
`YKQKRRLVFGADD [V3Q]` — result for “normalised enrichment score”: 0.735.
For `YKVKRRLVFGPDD [A11P]`, “normalised enrichment score” read 6.25.
`YKVKRRLVAGADD [F9A]`: “normalised enrichment score” 0.132.
Under “normalised enrichment score”, `YKVKRKLVFGADD [R6K]` is recorded as 5.24.

Mixed results
SLC6A2: Sodium-dependent noradrenaline transporter (SLC6A2, Homo sapiens, UniProt P23975)
UniProt P23975, sequence (whole entry, looked up): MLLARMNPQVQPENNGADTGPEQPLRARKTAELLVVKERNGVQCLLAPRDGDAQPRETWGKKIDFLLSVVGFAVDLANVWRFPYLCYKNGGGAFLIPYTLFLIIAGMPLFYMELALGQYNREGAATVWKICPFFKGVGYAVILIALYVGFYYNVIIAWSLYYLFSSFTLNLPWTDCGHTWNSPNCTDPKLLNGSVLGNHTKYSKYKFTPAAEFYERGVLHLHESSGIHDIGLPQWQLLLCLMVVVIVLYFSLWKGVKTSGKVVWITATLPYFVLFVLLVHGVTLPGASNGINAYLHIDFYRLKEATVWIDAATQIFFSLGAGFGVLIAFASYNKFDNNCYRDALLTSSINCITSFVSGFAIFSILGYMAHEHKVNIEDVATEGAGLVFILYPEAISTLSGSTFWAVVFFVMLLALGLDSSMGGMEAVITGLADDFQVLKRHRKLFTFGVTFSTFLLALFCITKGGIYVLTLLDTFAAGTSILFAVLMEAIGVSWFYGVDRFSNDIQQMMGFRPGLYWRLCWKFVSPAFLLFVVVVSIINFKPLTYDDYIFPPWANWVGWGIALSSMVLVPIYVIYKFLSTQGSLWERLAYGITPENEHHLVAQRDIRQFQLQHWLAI
With COc1cc(-c2cn(C3CCc4ccccc4N(CC(F)(F)F)C3=O)nn2)ccc1-n1ccc(C)n1 (stereo not shown) the inhibition was 16.9% (5-hydroxytryptamine receptor 2C (HTR2C, Homo sapiens, UniProt P28335); binding, radioligand binding; 10 µM).
Under “grade 3 bilirubin increased incidence”, COc1ccc(-c2c(Nc3ccccn3)[nH]c3c(C4=CCCCC4)c(-c4ccccc4)nn3c2=O)cc1 is recorded as 10% (patients with advanced malignancies; oral, dose not given, treatment-emergent adverse events).
With COc1cc(N[C@@H]2CCCC[C@]2(O)C(F)(F)F)ccc1F the inhibition was -20.4% (SLC6A2; ligand displacement; 10 µM).
CN([C@@H]1CCc2c(CC(=O)O)c3ccccc3n2C1)S(=O)(=O)c1ccc(F)cc1 has an inhibition of 23.8% (SLC6A2; ligand displacement; 10 µM).

Some of these lines once more (set 2):
`YKQKRRLVFGADD [V3Q]` — result for “normalised enrichment score”: 0.735.
